Assay results collected from several papers.
A part holds a random share of what one study measured.
UniProt Q9Y243, sequence (whole entry, looked up): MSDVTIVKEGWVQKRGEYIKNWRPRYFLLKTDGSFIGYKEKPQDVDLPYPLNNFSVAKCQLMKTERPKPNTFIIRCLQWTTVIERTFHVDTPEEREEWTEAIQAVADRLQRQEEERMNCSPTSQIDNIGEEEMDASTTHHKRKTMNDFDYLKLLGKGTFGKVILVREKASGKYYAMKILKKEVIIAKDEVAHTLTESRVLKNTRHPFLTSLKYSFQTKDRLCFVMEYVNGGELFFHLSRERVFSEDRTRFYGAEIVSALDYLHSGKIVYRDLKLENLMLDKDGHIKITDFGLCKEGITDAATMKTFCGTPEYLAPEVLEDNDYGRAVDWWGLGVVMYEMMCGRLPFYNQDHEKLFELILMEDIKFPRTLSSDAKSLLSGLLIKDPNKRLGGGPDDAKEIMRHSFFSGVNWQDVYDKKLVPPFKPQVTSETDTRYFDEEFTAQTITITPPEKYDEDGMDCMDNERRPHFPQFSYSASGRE

Study 1 — technique: protein-binding microarray; form: double-stranded DNA, one strand shown; sample: in vitro; tested at: not given; direction: higher = stronger binding; endpoint: E-score
Target: Protein max, full length (MAX, Homo sapiens, UniProt P61244-2, residues 1-151)
Setting: k-mer, scored over probes, only values ≥0.25
CATGCCAG: 0.286
CTCACGCA: 0.296
CGTGTGTC: 0.334
ATGTGTGC: 0.355
CCACGAGC: 0.374
CACGACCA: 0.276
CAAACATG: 0.287
ACGCGGAC: 0.359

Study 2 — technique: universal PBM; form: double-stranded DNA, one strand shown; sample: in vitro; tested at: 600 nM; direction: higher = stronger binding; endpoint: E-score
Target: Sal-like protein 4, full length isoform A (SALL4, Homo sapiens, UniProt Q9UJQ4, residues 1-1053)
UniProt Q9UJQ4, sequence (whole entry, looked up): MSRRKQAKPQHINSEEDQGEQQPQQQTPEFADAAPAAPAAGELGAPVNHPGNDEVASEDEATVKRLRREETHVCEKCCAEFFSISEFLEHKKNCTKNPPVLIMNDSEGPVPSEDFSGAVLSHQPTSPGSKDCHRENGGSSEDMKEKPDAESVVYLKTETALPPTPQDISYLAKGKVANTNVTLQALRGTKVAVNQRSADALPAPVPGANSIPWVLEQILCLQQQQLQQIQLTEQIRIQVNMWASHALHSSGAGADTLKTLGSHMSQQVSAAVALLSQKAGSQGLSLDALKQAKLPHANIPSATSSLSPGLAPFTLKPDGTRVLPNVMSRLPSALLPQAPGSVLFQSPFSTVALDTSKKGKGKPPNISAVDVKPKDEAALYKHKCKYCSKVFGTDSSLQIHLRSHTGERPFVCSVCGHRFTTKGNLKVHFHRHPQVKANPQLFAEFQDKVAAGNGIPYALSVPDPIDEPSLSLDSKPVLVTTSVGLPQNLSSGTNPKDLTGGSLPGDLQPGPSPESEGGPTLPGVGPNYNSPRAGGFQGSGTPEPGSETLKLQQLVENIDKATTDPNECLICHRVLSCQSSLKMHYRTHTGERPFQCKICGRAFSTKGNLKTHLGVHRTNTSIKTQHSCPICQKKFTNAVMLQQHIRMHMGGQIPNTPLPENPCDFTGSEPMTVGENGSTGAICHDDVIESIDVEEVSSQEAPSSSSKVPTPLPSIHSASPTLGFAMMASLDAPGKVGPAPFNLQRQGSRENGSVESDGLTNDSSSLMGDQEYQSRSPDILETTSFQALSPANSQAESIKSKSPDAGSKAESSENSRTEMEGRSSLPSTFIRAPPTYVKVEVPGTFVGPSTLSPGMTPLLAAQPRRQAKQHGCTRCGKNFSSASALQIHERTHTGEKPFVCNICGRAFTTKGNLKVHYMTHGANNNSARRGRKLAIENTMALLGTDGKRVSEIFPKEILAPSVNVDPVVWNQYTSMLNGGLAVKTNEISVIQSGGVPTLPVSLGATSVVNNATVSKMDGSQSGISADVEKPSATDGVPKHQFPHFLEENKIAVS
Setting: 8-mer, flanks averaged, mean of replicates
ACACTGCA: -0.153
AAGCGAAG: 0.00789
AGGTTTAG: -0.026
ATCTCCCC: -0.16
TACACGCA: -0.0425
GGTTCGAC: -0.148
AAAGACGA: 0.0853
AGCATCGC: -0.221

Single results of other studies
PhoQ, residues 284 288 289 292 302 303 GLASVI — fold induction (PhoP, residues 12 14 15 18 19 SYFRT (Escherichia coli, UniProt P23836); Sort-seq, item: YFP reporter; E. coli; PhoQ-PhoP variant library, added: 10 µM Mg2+; reference: high Mg2+ state, higher = stronger signaling): 1.46
COc1cc2ncnc(Nc3cccc(Cl)c3)c2cc1OC — remaining activity (RAC-gamma serine/threonine-protein kinase (AKT3, Homo sapiens, UniProt Q9Y243); enzyme activity, inhibitor; 0.5 µM; reference: control): 98.3%

Repeated from above (study 2):
ACACTGCA: -0.153
AAGCGAAG: 0.00789
